{"data": "Measured values gathered from unrelated publications", "note": "Protocols differ between the studies behind these lines. ± gives the spread as reported.", "UniProt Q15131, sequence (whole entry, looked up)": "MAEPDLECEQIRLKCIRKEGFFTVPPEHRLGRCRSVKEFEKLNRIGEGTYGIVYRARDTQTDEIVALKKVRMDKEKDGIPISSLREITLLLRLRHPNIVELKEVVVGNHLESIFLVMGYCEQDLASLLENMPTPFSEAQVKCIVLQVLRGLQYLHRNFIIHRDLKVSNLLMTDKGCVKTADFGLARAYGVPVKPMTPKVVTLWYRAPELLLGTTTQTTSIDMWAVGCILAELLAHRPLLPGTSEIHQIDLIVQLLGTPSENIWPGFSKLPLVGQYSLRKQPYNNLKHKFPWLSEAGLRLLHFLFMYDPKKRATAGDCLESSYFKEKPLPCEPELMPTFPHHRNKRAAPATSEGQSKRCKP"}
{"Compound": "CC(C)(C)C(=O)OCOP(=O)(OCOC(=O)C(C)(C)C)C1CCCN(O)C1=O (stereo not shown)", "tested on": "MDA-MB-435", "endpoint": "CC50", "result": "> 100 µM"}
{"Compound": "C=CCN1C(=O)C(CC=C)(C(=O)OCC)Oc2cc(F)ccc21 (stereo not shown)", "tested on": "HaCaT", "test": "cell growth or viability, CCK-8", "conditions": "0.78 µM, 72 h", "endpoint": "inhibition", "result": "0.21%"}
{"Compound": "O=C1NC2(CC2)COc2ncc(F)cc2[C@H]2COCCN2c2ccn3ncc1c3n2", "system": "Sprague-Dawley rat, male, serum", "conditions": "oral, 10 mg/kg/day, end of recovery, 4-week subacute toxicity", "endpoint": "serum hepatic lipase activity", "result": "3.4 ± 0.3 U/L"}
{"Compound": "CC(C)C[C@H](NC(=O)[C@H](CC(=O)O)NC(=O)CNC(=O)[C@@H](N)CCCNC(=N)N)C(=O)N[C@@H](C)C(=O)N[C@H](C(=O)N[C@@H](CC(C)C)C(=O)N[C@@H](CCCNC(=N)N)C(=O)N[C@@H](CCC(N)=O)C(=O)N[C@@H](CC(C)C)C(=O)N[C@@H](C)C(=O)N[C@@H](CCC(N)=O)C(=O)N[C@@H](CCC(=O)O)C(=O)N[C@@H](CC(=O)O)C(=O)NCC(=O)N[C@H](C(=O)N[C@H](C(=O)NCC(=O)N[C@H](C(=O)N[C@@H](CCCNC(=N)N)C(=O)NCCOCCOCCOCCOCCOCCOCCOCCOCCOCCOCCOCCOCCC(=O)N[C@@H](CS)C(N)=O)C(C)C)C(C)C)C(C)C)[C@@H](C)O", "tested on": "H1819", "test": "phage binding", "conditions": "10 min, 37 °C", "scale": "relative to: control phage", "endpoint": "selectivity ratio", "result": "250 ± 30"}
{"Compound": "Cc1cc(Oc2nc(N3CC[C@@H](c4ccncc4)C3)ncc2F)[nH]n1", "tested on": "IGROV-1", "test": "cell proliferation", "endpoint": "IC50", "result": "45.7 µM"}
{"Compound": "CCOC(=O)C1(Cc2ccccc2)Oc2cc(F)ccc2N(Cc2ccccc2)C1=O (stereo not shown)", "tested on": "L02", "test": "cell growth or viability, CCK-8", "conditions": "100 µM, 72 h", "endpoint": "inhibition", "result": "1.77%"}
{"Compound": "CSCC[C@H](NC(=O)[C@@H](NC(=O)[C@H](CCC(N)=O)NC(=O)[C@H](CO)NC(=O)[C@@H](N)C(C)C)[C@@H](C)O)C(=O)N[C@@H](CCCNC(=N)N)C(=O)N[C@@H](CCC(N)=O)C(=O)N[C@H](C(=O)N[C@@H](C)C(=O)N[C@H](C(=O)N1CCC[C@H]1C(=O)N[C@@H](CC(C)C)C(=O)N[C@@H](CC(C)C)C(=O)N[C@@H](Cc1c[nH]c2ccccc12)C(=O)N[C@@H](Cc1ccccc1)C(=O)N[C@@H](Cc1c[nH]c2ccccc12)C(=O)N[C@H](C(=O)NCC(=O)N[C@@H](CO)C(=O)N[C@@H](CC(C)C)C(=O)NCCOCCOCCOCCOCCOCCOCCOCCOCCOCCOCCOCCOCCC(=O)N[C@@H](CS)C(N)=O)[C@@H](C)O)C(C)C)[C@@H](C)O", "tested on": "SW480", "test": "phage binding", "conditions": "10 min, 37 °C", "scale": "relative to: control phage", "endpoint": "selectivity ratio", "result": "4.5 ± 2.2"}
{"Compound": "COc1ccccc1-c1n[nH]c2nc(NC3CCN(C(=O)Cc4ccc(F)cc4F)CC3)ncc12", "test": "bead binding, competition bead pull-down, refers to: LINJ.06.0030", "system": "Leishmania donovani extract", "conditions": "10 µM", "scale": "relative to: vehicle", "endpoint": "relative abundance", "result": 0.99}
{"Compound": "O=C(O)c1ccc(-c2nc(-c3ccccc3Cl)c3sccn23)cc1", "tested on": "MOLT-4", "test": "CellROX Red", "conditions": "0.1 mM, 48 h", "endpoint": "ROS level", "result": "4890 RFU"}
{"Compound": "C#CCN1C(=O)C(CC#C)(C(=O)OCC)Oc2ccccc21 (stereo not shown)", "tested on": "HaCaT", "test": "cell growth or viability, CCK-8", "conditions": "25 µM, 72 h", "endpoint": "inhibition", "result": "0.36%"}
{"Compound": "COc1ccccc1-c1n[nH]c2nc(N[C@H]3CC[C@H](NS(=O)(=O)CC(C)C)CC3)ncc12", "test": "bead binding, competition bead pull-down, refers to: LINJ.33.0950", "system": "Leishmania donovani extract", "conditions": "10 µM", "scale": "relative to: vehicle", "endpoint": "relative abundance", "result": 0.87}
{"Compound": "CN(C)[C@H]1C[C@@]23CC[C@@]4(O2)C(=CC[C@]2(C)[C@@H](c5ccc6ccncc6c5)CC[C@H]24)C=C3[C@@H](O)[C@@H]1O", "tested on": "Cyclin-dependent kinase 10 (CDK10, Homo sapiens, UniProt Q15131)", "test": "ATP probe labelling, inhibitor, KiNativ profiling", "conditions": "0.1 µM", "endpoint": "inhibition", "result": "-2.8%"}
{"Compound": "COc1ccccc1-c1ccncc1C(=O)Nc1nnc(OCc2ccc(Cl)cc2)s1", "tested on": "DLD-1 BRCA2-/-", "conditions": "2 µM, mean of 3 replicates", "scale": "relative to: untreated", "endpoint": "colony survival", "result": "31.3%"}
{"note": "For quick reference, copied from above:"}
{"Compound": "CC(C)(C)C(=O)OCOP(=O)(OCOC(=O)C(C)(C)C)C1CCCN(O)C1=O (stereo not shown)", "tested on": "MDA-MB-435", "endpoint": "CC50", "result": "> 100 µM"}
{"Compound": "C=CCN1C(=O)C(CC=C)(C(=O)OCC)Oc2cc(F)ccc21 (stereo not shown)", "tested on": "HaCaT", "test": "cell growth or viability, CCK-8", "conditions": "0.78 µM, 72 h", "endpoint": "inhibition", "result": "0.21%"}
